# Measured values pooled from the literature.
# Numbered parts are unrelated; each lists some results of a single study.
# UniProt Q6XUX3, sequence (whole entry, looked up): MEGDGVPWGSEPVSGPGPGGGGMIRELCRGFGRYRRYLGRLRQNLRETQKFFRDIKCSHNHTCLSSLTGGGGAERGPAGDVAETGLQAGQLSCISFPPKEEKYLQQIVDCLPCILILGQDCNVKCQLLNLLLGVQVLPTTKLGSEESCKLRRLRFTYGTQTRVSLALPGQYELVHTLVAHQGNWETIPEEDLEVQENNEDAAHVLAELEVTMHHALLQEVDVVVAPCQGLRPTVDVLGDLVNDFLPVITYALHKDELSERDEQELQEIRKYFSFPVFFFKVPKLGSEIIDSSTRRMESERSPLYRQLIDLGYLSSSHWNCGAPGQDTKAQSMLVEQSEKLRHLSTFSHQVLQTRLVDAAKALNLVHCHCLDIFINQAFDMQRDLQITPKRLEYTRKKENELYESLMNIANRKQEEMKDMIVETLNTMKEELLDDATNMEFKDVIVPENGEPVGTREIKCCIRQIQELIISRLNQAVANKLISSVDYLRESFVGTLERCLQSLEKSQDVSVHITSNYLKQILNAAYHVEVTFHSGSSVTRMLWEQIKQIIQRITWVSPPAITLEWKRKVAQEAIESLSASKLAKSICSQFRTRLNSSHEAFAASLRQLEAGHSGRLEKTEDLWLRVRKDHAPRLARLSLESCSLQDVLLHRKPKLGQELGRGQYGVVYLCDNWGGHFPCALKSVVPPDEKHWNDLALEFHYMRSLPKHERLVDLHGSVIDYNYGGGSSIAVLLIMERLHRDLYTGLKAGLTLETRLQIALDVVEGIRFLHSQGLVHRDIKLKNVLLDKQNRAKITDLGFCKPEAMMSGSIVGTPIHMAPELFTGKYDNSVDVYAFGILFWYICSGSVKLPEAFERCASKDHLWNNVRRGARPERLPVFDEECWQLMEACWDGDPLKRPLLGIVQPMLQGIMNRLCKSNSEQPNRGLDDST
# UniProt Q13555, sequence (whole entry, looked up): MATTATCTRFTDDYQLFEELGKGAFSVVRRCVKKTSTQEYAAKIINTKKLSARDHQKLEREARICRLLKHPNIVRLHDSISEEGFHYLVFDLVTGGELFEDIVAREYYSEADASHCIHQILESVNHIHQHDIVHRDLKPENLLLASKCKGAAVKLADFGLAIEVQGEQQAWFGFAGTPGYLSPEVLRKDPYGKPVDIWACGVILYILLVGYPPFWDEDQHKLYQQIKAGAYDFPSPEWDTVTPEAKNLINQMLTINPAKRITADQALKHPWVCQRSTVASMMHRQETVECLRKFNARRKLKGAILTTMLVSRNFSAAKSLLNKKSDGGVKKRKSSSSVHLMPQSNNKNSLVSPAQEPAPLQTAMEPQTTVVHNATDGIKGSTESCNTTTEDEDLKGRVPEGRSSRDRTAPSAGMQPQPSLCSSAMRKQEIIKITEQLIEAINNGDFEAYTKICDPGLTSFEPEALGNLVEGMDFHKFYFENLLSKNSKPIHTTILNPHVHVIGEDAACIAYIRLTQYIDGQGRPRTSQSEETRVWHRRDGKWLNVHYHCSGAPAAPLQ
# UniProt Q9NR20, sequence (whole entry, looked up): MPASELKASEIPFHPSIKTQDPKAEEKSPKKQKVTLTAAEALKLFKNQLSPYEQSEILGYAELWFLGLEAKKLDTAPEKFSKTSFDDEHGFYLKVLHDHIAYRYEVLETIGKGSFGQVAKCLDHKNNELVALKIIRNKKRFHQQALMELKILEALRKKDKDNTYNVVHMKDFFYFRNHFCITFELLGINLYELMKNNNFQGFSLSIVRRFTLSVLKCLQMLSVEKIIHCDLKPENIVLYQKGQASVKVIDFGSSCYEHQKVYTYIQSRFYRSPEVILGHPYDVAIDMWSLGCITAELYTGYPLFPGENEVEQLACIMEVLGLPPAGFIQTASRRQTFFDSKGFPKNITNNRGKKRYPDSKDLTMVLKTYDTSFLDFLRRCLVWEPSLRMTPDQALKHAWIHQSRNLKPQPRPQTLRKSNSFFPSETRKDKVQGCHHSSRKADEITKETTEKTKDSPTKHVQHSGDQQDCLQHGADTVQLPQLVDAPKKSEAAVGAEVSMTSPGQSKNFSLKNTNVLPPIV

# Sample 1
# Target: Beta-1 adrenergic receptor (ADRB1, Homo sapiens, UniProt P08588)
# UniProt P08588, sequence (whole entry, looked up): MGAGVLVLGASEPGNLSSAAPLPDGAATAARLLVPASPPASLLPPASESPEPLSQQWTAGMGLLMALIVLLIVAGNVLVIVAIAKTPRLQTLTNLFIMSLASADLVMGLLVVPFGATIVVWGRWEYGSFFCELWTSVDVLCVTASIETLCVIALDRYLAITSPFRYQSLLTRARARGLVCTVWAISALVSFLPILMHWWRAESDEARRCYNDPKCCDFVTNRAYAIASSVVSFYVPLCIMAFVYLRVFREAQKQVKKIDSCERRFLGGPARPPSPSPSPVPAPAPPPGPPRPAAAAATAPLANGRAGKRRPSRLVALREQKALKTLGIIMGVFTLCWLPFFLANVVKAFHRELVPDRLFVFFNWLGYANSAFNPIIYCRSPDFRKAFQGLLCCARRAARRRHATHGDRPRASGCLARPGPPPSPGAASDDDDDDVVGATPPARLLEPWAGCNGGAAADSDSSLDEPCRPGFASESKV
# Mode: antagonist
SMILES,IC50
Clc1cccc(N2CCNCC2)c1Cl,≥ 100 µM
Oc1cc2ccccc2c2ccccc12,≥ 100 µM
CN(C)C(=O)Oc1cc(OC(=O)N(C)C)cc(C(O)CNC(C)(C)C)c1 (stereo not shown),≥ 100 µM
O=C1NCC2(CCCN(Cc3cc(O)c4cccc(F)c4n3)C2)O1 (stereo not shown),≥ 100 µM

# Sample 2
# SMILES: CC(C)(C)c1cc(C=C(C#N)C#N)cc(Br)c1O
# Effect on: enzyme activity
# Mode: inhibitor
# Tested at: 0.5 µM
target,scale,remaining activity [%]
"Dual serine/threonine and tyrosine protein kinase (DSTYK, Homo sapiens, UniProt Q6XUX3)",,105
"Calcium/calmodulin-dependent protein kinase type II subunit gamma (CAMK2G, Homo sapiens, UniProt Q13555)",reference: control,104
"Dual specificity tyrosine-phosphorylation-regulated kinase 4 (DYRK4, Homo sapiens, UniProt Q9NR20)",,98.2
"Protein kinase C alpha type (PRKCA, Homo sapiens, UniProt P17252)",,81.4

# Sample 3
# Cell line: HH
# Tested at: 2 µM
# Time: 48 h
# Reference: untreated
SMILES,viability
N#CC(C#N)=Cc1ccc(O)c(O)c1,102%
C/C(O)=C(\C#N)C(=O)Nc1cc(Br)ccc1Br,126%
CC(C)(C)c1cc(C=C(C#N)C#N)cc(C(C)(C)C)c1O,80.1%
NC(=O)Nc1sc(-c2ccc(F)cc2)cc1C(N)=O,33.4%

# Mixed results
SMILES,cell line,assay,setting,scale,endpoint,value
C[C@]12CC[C@H](O)C[C@@H]1CC[C@@H]1[C@@H]2CC[C@]2(C)C(=O)CC[C@@H]12,mouse MPNST tumor cells,"high-content immunofluorescence imaging, item: nuclear SOX9","10 µM, 12 h, mean of 2 replicates","reference: DMSO control, higher = more nuclear SOX9",nuclear SOX9 intensity,108 % of DMSO
